Results from different studies.
A part holds a random share of what one study measured. “And” joins repeats or separate records; there may be more than shown.
Chain of UniProt P20309 (whole entry, looked up): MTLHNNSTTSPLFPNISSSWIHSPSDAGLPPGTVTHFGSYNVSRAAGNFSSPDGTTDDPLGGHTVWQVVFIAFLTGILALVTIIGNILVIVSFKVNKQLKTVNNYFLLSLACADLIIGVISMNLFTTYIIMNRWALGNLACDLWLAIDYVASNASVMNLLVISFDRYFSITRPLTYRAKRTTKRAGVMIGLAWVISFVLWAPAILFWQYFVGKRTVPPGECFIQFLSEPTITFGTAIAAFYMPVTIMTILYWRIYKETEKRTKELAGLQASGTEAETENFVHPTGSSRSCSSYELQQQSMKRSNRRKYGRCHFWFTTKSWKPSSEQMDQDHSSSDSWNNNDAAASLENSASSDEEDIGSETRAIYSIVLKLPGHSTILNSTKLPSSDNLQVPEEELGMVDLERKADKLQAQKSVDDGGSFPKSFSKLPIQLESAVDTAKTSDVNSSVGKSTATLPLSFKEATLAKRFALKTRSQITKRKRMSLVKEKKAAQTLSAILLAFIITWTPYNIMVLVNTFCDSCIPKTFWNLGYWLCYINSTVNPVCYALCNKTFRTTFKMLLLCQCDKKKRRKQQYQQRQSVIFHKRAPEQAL
Chain of UniProt P35372 (whole entry, looked up): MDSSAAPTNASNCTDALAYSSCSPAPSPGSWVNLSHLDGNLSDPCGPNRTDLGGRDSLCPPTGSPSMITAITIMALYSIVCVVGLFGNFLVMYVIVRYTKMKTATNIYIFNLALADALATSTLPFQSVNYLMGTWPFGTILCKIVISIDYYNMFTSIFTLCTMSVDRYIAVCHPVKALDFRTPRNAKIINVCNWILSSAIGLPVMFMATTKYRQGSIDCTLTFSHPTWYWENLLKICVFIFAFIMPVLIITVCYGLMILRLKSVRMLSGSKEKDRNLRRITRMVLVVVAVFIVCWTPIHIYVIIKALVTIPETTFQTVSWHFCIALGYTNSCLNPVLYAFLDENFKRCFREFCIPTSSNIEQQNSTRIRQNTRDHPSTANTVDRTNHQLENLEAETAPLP
Chain of UniProt P31645 (whole entry, looked up): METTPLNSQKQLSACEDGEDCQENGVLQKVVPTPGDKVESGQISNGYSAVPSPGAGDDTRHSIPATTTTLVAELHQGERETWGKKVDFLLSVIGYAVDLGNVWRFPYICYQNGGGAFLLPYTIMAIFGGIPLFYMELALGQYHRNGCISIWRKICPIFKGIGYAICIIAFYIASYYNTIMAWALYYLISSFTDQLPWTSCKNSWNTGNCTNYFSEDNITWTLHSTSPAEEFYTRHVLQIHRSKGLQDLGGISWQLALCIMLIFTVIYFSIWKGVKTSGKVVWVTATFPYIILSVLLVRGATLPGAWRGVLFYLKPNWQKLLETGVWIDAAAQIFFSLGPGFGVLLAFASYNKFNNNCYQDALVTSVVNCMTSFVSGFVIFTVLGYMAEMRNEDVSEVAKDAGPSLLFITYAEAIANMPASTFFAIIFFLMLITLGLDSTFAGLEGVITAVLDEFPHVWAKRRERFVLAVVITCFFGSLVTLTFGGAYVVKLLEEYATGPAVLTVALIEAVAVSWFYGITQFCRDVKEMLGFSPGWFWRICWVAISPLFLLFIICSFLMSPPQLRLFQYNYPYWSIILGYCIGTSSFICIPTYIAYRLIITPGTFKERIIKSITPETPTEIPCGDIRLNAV
Chain of UniProt P23975 (whole entry, looked up): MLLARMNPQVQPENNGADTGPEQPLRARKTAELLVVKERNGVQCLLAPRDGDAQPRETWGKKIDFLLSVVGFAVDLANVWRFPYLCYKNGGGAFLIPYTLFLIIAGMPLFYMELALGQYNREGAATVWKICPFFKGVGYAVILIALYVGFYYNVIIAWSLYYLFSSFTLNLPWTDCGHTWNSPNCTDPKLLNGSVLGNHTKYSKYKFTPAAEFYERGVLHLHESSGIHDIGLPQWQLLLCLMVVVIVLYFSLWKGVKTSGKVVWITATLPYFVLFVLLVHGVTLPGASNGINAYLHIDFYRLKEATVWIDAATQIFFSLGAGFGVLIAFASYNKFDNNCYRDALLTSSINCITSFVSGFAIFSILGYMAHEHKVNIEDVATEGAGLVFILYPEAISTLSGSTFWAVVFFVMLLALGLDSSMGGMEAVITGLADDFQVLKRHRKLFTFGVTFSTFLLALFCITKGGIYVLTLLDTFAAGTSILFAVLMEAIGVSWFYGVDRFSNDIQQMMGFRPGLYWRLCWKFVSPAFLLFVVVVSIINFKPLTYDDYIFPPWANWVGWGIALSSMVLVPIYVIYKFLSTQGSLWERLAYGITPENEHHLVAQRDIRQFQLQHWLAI
Chain of UniProt Q01959 (whole entry, looked up): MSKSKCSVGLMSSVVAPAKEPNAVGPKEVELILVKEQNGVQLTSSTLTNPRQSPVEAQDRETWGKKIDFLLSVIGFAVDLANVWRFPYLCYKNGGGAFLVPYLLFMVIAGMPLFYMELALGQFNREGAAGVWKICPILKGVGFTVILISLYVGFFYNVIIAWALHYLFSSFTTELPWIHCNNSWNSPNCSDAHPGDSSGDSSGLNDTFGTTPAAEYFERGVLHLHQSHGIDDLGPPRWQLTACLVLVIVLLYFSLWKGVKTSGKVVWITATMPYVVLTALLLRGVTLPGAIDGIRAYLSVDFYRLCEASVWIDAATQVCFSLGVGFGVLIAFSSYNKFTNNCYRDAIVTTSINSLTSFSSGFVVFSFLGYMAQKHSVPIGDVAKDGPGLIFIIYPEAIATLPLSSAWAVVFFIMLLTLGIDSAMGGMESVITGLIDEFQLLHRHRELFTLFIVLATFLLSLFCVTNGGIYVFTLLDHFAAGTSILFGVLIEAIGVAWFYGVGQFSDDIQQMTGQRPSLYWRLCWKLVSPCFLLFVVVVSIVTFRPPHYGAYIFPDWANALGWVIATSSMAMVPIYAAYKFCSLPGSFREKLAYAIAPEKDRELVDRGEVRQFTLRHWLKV
Chain of UniProt P41145 (whole entry, looked up): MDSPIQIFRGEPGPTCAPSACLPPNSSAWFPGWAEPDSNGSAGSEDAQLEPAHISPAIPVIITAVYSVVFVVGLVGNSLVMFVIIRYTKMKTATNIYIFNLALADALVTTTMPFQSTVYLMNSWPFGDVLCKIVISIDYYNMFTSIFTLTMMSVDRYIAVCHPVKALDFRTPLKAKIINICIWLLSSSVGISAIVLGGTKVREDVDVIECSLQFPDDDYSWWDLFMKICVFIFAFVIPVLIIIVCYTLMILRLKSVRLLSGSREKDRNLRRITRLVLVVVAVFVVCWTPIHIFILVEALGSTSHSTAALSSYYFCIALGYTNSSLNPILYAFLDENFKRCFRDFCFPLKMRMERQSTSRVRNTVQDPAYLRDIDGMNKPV
Chain of UniProt P21918 (whole entry, looked up): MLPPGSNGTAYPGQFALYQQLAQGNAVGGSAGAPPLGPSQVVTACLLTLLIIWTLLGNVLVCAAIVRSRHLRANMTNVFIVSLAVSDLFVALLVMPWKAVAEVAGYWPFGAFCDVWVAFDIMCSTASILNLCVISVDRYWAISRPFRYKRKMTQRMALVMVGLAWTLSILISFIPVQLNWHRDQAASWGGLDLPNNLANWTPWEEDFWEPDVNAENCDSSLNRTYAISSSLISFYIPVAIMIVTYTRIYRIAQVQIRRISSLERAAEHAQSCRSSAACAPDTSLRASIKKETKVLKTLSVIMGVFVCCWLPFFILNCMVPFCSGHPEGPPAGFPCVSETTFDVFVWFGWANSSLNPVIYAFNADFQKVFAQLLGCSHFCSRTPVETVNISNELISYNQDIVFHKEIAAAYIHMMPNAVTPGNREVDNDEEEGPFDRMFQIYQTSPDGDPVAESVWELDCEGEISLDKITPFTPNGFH

Set 1
Cell line: HEK-293T/ACE2
Concentration: concentration not given
Time: 16 (unit not given)
Relative to: vehicle
| SMILES | viability |
| --- | --- |
| CCCc1nc2c(C)cc(-c3nc4ccccc4n3C)cc2n1Cc1ccc(-c2ccccc2C(=O)O)cc1 | 98.9% |
| N[C@@H]1CON=C1O | 99.6% |
| C[C@]12CC[C@@H]3c4ccc(OS(=O)(=O)O)cc4CC[C@H]3[C@@H]1CCC2=O | 101% |
| CNS(=O)(=O)Cc1ccc2[nH]cc(CCN(C)C)c2c1 | 101% |
| CCCNC(=O)NS(=O)(=O)c1ccc(Cl)cc1 | 100% |
| COC(=O)C1=C(C)NC(C)=C(C(=O)OCC(C)C)C1c1ccccc1[N+](=O)[O-] (centres unmarked) | 101% |

Set 2
SMILES: CCCCN(CCCC)C(=O)CN1C[C@H](c2cc(OC)c3c(c2)OCO3)[C@@H](C(=O)O)[C@@H]1CC(C)(C)CCC
Effect on: binding
Technique: radioligand binding
Concentration: 10 µM
| target | inhibition [%] |
| --- | --- |
| DRD5 (Homo sapiens, UniProt P21918) | 17 |
| SLC6A2 (Homo sapiens, UniProt P23975) | -19.9 |
| CHRM3 (Homo sapiens, UniProt P20309) | -9.94 |
| SLC6A3 (Homo sapiens, UniProt Q01959) | -0.591 |
| OPRM1 (Homo sapiens, UniProt P35372) | 14.2 |
| SLC6A4 (Homo sapiens, UniProt P31645) | 15.3 |
| OPRK1 (Homo sapiens, UniProt P41145) | -1.47 |

Set 3
Organism: Sarcocystis neurona
Effect on: parasite growth
Concentration: concentration not given
Setting: first screen
Relative to: untreated
| SMILES | log2 fold change |
| --- | --- |
| Cl.O.Oc1ccc2c3c1O[C@H]1c4[nH]c5ccccc5c4C[C@@]4(O)[C@@H](C2)N(CC2CC2)CC[C@]314 | -0.08 |
| C=C(C)CN1CC[C@]23c4c5ccc(O)c4O[C@H]2c2[nH]c4ccccc4c2C[C@@]3(O)C1C5.Cl.O | -0.63 |
| COC(=O)N1CCN(C(=O)Cc2ccc(Cl)c(Cl)c2)C(CN2CCCC2)C1.O=C(O)/C=C/C(=O)O (centres unmarked) | -0.08 |
| C[N+]1(CCC(C(N)=O)(c2ccccc2)c2ccccc2)CCCCC1.[Br-] | 0.27 |
| CN1CC[C@@H](c2ccc(F)cc2)[C@H](COc2ccc3c(c2)OCO3)C1 | -0.23 |
| Cl.OC1CCCCC1N1CCC(c2ccccc2)CC1 (racemic) | -0.16 |

Set 4
Cell line: mouse MPNST tumor cells
Technique: high-content immunofluorescence imaging
Item: nuclear SOX9
Concentration: 10 µM
Time: 12 h
Setting: mean of 2 replicates
Relative to: DMSO control
Reading: higher = more nuclear SOX9
| Compound | nuclear SOX9 intensity |
| --- | --- |
| CC(=O)OC1CN2CCC1CC2 (centres unmarked) | 97.5 % of DMSO |
| O=[N+]([O-])O[C@H]1CO[C@H]2[C@@H]1OC[C@H]2O[N+](=O)[O-] | 97.5 % of DMSO and 97.3 % of DMSO |
| C=CC[C@]1(O)CC[C@H]2[C@@H]3CCC4=CC(=O)CCC4=C3C=C[C@@]21C | 92.7 % of DMSO |
| CCC(=O)O[C@@](Cc1ccccc1)(c1ccccc1)[C@@H](C)CN(C)C | 105 % of DMSO |

For quick reference, copied from above (set 4):
| Compound | nuclear SOX9 intensity |
| --- | --- |
| O=[N+]([O-])O[C@H]1CO[C@H]2[C@@H]1OC[C@H]2O[N+](=O)[O-] | 97.5 % of DMSO and 97.3 % of DMSO |
| CC(=O)OC1CN2CCC1CC2 (centres unmarked) | 97.5 % of DMSO |
| CCC(=O)O[C@@](Cc1ccccc1)(c1ccccc1)[C@@H](C)CN(C)C | 105 % of DMSO |
| C=CC[C@]1(O)CC[C@H]2[C@@H]3CCC4=CC(=O)CCC4=C3C=C[C@@]21C | 92.7 % of DMSO |
